Experimental data pooled from the literature.
Each line is one published result; not all experiments were run side by side. ± marks the error that the study gave.

`[Cl-].[Cl-].[Os+2].c1cnc2c(c1)ccc1cccnc12.c1cnc2c(c1)ccc1cccnc12.c1cnc2c(c1)ccc1cccnc12` has an EC50 of 168 ± 2 µM (SK-MEL-28; cell viability, resazurin; dark, 1% O2 hypoxia).
`Cc1ccc(-c2nc3ccccc3s2)cc1NC(=O)c1cc([N+](=O)[O-])c(NCCNC(=O)OC(C)(C)C)cc1Cl` has an EC50 of over 30 µM (BJ fibroblasts; cell growth, CellTiter-Glo; 72 h).
`CC(C)NCCCn1c(Sc2cc3c(cc2I)OCO3)nc2c(N)ncnc21` — result for EC50: “inactive” (MYBPC3 iPSC-cardiomyocytes; item: MYH; 24 h).
`COc1cc(-c2nn(CCN3CCC(N(C)C)CC3)c3ncnc(N)c23)ccc1NC(=O)OC(C)(C)C` has an EC50 of 3.79 µM (SKGT4; 120 h).
The EC50 of `O=C(Nc1cncc(-c2nc3ccccc3s2)c1)c1cc([N+](=O)[O-])c(N2CCNCC2)cc1Cl` is reported as over 15.3 µM (BJ fibroblasts; cell growth, CellTiter-Glo; 72 h).
The EC50 of `C=C(NC(=O)C(=C)NC(=O)c1csc(C2=N[C@@H]3c4csc(n4)[C@H]4NC(=O)c5csc(n5)[C@H]([C@](C)(O)[C@@H](C)O)NC(=O)[C@H]5CSC(=N5)/C(=C/C)NC(=O)[C@H]([C@@H](C)O)NC(=O)c5csc(n5)[C@]3(CC2)NC(=O)[C@H](C)NC(=O)C(=C)NC(=O)[C@H](C)NC(=O)[C@H]([C@@H](C)CC)N[C@@H]2C=Cc3c([C@H](C)O)cc(nc3[C@H]2O)C(=O)O[C@@H]4C)n1)C(N)=O` is reported as 0.9 µM (SCC-61; cell viability).
The EC50 of `Cc1cc(Nc2ncc(Cl)c(Nc3ccccc3S(=O)(=O)C(C)C)n2)c(OC(C)C)cc1C1CCNCC1` is reported as over 10 µM (iPSC-derived maturing neurons; CellTiter-Blue metabolic; 24 h, 4-week maturation).
`Cc1ccc(C=NNC(=O)C2CC(=O)N(c3ccc(F)cc3F)C2)cc1` (centres unmarked) gave an EC50 of 1 ± 0.2 µM (A-375; cell viability, MTT; 72 h).
`C[C@]12CCCN1CC1=NNC(=O)c3cc(F)cc4[nH]c2c1c34` has an EC50 of over 3 µM (DLD-1 colorectal cancer cells; cell viability; concentration not given, together with: with temozolomide).
`COc1cnc2cccc(N3CCc4c(cc(Cn5ccnc5C)cc4-c4cn(C)nc4C(F)(F)F)C3=O)c2c1` gave an EC50 of 9.26 µM (RKO; cell growth, inhibitor; 120 h).
With `O=C(Nc1cncc(-c2nc3ccccc3o2)c1)c1ccc(N2CCNCC2)c([N+](=O)[O-])c1` the EC50 was over 20.1 µM (BJ fibroblasts; cell growth, CellTiter-Glo; 72 h).
For `CCn1cc(-c2cc(Cn3ccoc3=N)cc3c2CCN([C@@H](C)c2cc(OC)ccn2)C3=O)c(C(F)(F)F)n1`, the EC50 was 0.0155 µM (SK-MEL-24; cell growth, inhibitor; 120 h).
`CC(C)c1ccc(C2C(C#N)=C3N=C(N)c4ccccc4N3C3=C2C(=O)CCC3)cc1` (centres unmarked) has an EC50 of over 60 µM (HMC3; phagocytosis, high-content imaging; geometric mean, together with: pHrodo-myelin uptake).
The EC50 of `Cc1ccc(-c2nc3ccccc3s2)cc1NC(=O)c1cc([N+](=O)[O-])c(NCCN(C)C)cc1Cl` is reported as over 17.2 µM (BJ fibroblasts; cell growth, CellTiter-Glo; 72 h).
For `CCn1cc(-c2cc(Cn3ccnc3)cc3c2CCN([C@H](c2cc(OC)ccn2)C2CC2)C3=O)c(C(F)(F)F)n1`, the EC50 was 0.426 µM (Hs 294T; cell growth, inhibitor; 120 h).
`c1cc(-c2cc3ncc(OCC4CCNCC4)nc3cc2-c2cccc(N3CCCCC3)c2)cc(N2CCCCC2)c1` gave an EC50 of 0.7 ± 0.03 µM (Jurkat; cell growth, XTT; 7 days).
With `N[C@@H](COCC(=O)N1CCC[C@H](C(=O)NCc2nc(-c3ccc(C(F)(F)F)cc3)cs2)C1)c1ccccc1` the EC50 was about 10 µM (Jurkat; cytotoxicity).
